Experimental data of several laboratories.
Parts stem from different laboratories: compare values within a part only. Changes are numbered by the printed parent chain.
UniProt P68036, sequence (whole entry, looked up): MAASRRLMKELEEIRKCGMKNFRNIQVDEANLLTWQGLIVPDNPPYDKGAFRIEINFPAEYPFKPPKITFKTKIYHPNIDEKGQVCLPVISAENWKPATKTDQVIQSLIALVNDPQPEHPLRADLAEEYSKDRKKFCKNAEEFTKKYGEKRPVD
UniProt Q9Y385, sequence (whole entry, looked up): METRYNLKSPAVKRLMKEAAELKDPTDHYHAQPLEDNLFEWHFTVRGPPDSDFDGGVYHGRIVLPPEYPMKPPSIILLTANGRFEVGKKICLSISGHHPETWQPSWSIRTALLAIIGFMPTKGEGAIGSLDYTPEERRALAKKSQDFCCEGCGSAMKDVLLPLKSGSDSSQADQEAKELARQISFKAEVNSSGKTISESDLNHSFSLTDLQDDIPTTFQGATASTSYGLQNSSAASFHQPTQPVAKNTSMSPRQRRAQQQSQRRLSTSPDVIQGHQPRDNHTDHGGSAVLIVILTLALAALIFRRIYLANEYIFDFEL
UniProt O00762, sequence (whole entry, looked up): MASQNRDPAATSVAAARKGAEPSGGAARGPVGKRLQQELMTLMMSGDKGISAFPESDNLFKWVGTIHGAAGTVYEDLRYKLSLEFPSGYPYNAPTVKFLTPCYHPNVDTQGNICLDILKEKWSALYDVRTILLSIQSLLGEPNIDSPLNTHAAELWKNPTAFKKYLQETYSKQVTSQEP
UniProt Q969T4, sequence (whole entry, looked up): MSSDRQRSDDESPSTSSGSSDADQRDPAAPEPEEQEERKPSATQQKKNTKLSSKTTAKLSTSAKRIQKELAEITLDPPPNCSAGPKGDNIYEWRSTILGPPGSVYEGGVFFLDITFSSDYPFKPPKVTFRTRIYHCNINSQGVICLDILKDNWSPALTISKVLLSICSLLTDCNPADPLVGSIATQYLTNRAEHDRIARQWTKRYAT
UniProt Q9C0C9, sequence (whole entry, looked up): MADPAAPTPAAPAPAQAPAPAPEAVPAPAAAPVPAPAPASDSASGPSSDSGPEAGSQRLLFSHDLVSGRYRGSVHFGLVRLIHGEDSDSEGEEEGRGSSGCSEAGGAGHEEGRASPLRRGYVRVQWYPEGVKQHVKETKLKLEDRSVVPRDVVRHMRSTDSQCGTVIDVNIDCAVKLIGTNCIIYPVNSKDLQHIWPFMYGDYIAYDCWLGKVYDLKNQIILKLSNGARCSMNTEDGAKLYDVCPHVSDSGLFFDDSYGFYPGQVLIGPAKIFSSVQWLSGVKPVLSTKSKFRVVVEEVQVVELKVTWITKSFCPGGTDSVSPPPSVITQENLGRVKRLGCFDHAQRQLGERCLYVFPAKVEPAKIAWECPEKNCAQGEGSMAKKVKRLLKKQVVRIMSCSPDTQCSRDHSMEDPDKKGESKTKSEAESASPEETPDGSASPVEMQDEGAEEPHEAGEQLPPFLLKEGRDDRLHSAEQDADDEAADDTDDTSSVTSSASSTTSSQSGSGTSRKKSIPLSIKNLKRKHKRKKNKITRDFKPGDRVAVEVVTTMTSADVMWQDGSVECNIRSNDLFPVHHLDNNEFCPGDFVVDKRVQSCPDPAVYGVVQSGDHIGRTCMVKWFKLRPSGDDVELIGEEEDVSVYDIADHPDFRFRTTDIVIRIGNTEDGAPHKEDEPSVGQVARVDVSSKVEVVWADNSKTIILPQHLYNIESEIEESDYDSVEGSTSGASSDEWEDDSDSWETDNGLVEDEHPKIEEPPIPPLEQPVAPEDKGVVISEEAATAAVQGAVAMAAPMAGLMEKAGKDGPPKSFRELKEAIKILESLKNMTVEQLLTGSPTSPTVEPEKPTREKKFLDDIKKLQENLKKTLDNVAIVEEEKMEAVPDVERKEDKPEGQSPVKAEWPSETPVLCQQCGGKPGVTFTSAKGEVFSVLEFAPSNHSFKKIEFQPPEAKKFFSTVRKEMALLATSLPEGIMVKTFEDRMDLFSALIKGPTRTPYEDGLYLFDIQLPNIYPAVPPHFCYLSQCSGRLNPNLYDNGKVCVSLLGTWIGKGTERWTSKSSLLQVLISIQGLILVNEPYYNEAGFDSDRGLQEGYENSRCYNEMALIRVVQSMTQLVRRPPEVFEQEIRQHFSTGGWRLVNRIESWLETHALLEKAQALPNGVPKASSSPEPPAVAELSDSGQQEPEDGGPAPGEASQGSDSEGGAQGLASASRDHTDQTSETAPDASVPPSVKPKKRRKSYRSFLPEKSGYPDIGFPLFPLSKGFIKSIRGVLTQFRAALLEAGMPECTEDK
UniProt P51668, sequence (whole entry, looked up): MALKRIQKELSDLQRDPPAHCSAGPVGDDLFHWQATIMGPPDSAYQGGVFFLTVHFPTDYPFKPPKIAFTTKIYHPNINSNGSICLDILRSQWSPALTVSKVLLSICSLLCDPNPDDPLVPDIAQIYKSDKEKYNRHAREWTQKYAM
UniProt Q9H832, sequence (whole entry, looked up): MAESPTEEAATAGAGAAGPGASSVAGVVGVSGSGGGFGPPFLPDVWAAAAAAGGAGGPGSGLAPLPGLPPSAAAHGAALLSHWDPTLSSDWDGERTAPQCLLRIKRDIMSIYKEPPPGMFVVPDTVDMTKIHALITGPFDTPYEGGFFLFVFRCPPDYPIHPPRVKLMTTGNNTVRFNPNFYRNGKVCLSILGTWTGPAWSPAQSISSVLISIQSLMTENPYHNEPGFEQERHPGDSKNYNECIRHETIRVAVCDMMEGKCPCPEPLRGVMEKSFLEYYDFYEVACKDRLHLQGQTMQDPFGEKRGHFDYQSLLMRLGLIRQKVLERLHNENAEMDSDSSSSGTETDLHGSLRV
UniProt Q9NPD8, sequence (whole entry, looked up): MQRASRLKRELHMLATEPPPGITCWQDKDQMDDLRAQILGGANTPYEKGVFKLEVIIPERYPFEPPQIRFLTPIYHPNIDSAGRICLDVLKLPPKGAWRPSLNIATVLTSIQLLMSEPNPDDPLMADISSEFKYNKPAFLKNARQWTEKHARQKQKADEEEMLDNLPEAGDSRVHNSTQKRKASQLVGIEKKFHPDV

Series 1
Sequence: B1 (CNOT4 RING domain)
Technique: yeast two-hybrid
Matrix: yeast
Notes: mostly zero background
Baseline: not given
Reading: higher = stronger interaction
B1: CNOT4 RING domain (UniProt O95628); chain MSRSPDAKEDPVECPLCMEPLEIDDINFFPCTCGYQICRFCWHRIRTDENGLCPACRKPYPED
| target | lacZ reporter activity |
| --- | --- |
| UBE2T UBC core domain (UniProt Q9NPD8) | 0 |
| UBE2C UBC core domain (UniProt O00762) | 0 |
| UBE2Z UBC core domain (UniProt Q9H832) | 0 |
| UBE2O UBC core domain (UniProt Q9C0C9) | 0 |
| UBE2E3 UBC core domain (UniProt Q969T4) | 12700 |
| UBE2D1 UBC core domain (UniProt P51668) | 13500 |
| UBE2L3 UBC core domain (UniProt P68036) | 0 |
| UBE2J1 UBC core domain (UniProt Q9Y385) | 0 |

Series 2
Target: RNA binding protein fox-1 homolog 2, RRM domain, GST-SBP tag (RBFOX2, Homo sapiens, UniProt O43251-10, residues 100-194)
Technique: RNA Bind-n-Seq
Molecule type: RNA
Matrix: in vitro
Concentration: 365 nM
Notes: natural RNA segment, single round, ends assumed
Baseline: no-protein control
Reading: higher = stronger binding
Shared flanks, not repeated: GGGAGUUCUACAGUCCGACGAUC … UGGAAUUCUCGGGUGCCAA
Construct (chain): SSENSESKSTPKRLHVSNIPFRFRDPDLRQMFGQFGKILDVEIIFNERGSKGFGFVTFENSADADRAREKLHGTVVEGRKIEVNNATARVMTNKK
| Strand | RBNS enrichment (R) |
| --- | --- |
| GGGUUUUGAGCAGGCUGUUAUAGUGAGGAAUGUUCAUUUUUAAAUGUUCCUAACAGAUUUUGCUUUUGAAAAAUGCUUGUUACAUGAAUAAUUUGUGGACCAGGGAUUGC | 0.641 |
| AUAGUUAAUAUUAGAAACUCUUUAAUAGUUUUCCUUUCAGUUUGUGAGCUCUUCUCUGUCGCCCUGAAGGGUCACUGUAUUCUGUAUGAAUGCAUGGCAUGAUACAACUA | 3.3 |
| CUAGCCAGAGACCUAUGCAUCCCGAAUGGCCACUAAGGCAGUCCUGAAGGGCCCUCCAGGGUGAUGACUCCAGUGUGUCAGCCCCACUGAGCAGCUAUGCAGGUUGACUG | 0.383 |
| AGAGUGUUUCCUCCACUGUAUACUGUCACAGACUAUCAUCAUUGCUUUGUGGCUGGUUUUGUUUUUUUACUGUAUGUAACAAGUAGCUGAUUGUACUUGGAUAAAAAACA | 1.56 |
| GGACUCCUCUCAAGUUGAAGUCAUCGUCUUCAUCUUCCUCCGUAUCUUCUUCCCUCAACUUCUUCACCCCUGAAGGACGACUGUCUGCAGAUGUUGCAGGACCUUGUUUU | 0.652 |
| CUAUACCGGAAUGUCCCUGCAGUGCCAGAGACGCAGUGCUGGGAAAACAACCACAGAAACAUCUCUCCUUUGUGUAUUUUUCCCUCCCCCACCUUUCACCCCACAGUGGU | 0.556 |
| AAGCCUAGAGGAGUCAGGAGCAGGGACUUUGACUCUUAGGAAGAGCACACAUGAGGGCAAGGCUGCUGGCAGACGUCUCCAUUGUCCUUAUGUUGUCUGUGUUGUAUUUU | 1.02 |
| AGAACUUCAGGGUUAUUCCAAGUACUUGUGUGACUUGGAAAAGUAGACUUGGGUUGUGGGAACAGUUGAUAAAGUUCUGGAAAGAUGCCAUUCAUUCUACAGUCUUCCCA | 0.326 |

Series 3
Target: RING finger protein unkempt homolog, zinc fingers 1-6, GST-SBP tag (UNK, Homo sapiens, UniProt Q9C0B0, residues 30-357)
UniProt Q9C0B0, sequence (30-357, looked up): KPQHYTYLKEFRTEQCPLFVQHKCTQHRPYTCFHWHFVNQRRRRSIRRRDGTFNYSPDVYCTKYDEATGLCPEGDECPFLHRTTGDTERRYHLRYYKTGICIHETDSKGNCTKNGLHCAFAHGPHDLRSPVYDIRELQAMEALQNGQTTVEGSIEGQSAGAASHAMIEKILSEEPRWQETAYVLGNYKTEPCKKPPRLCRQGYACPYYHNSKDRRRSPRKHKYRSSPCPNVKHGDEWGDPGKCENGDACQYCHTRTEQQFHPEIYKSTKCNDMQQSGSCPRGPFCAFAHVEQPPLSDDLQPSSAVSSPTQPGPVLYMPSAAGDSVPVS
Technique: RNA Bind-n-Seq
Molecule type: RNA
Matrix: in vitro
Concentration: not given
Notes: RNA with constant flanks, human and mouse sites, ends assumed
Baseline: input RNA pool
Reading: higher = stronger binding
Shared flanks, not repeated: GGGAGUUCUACAGUCCGACGAUC … CAACAGAGGAUUGAGCAUCA
| Strand | bound/input enrichment [ratio] |
| --- | --- |
| CCUGAAGAAAACCCUGGGUCACCUUCUAGAGAAUCACCUCUUUCAGCACCUUCAGAUCAUUCUUAGGUCUAAGGUGUAACACCUUUGCAGUACGUCAUGGGUGAUCUAAUACUUCCCCUU | 0.225 |
| UAUGGUUAUGAGAAGCCAGAGGAACGCUGGUUACCUAUCCAUACUGUGGAAACCAUCAUGAUUAGUGUCAUUUCUAUGCUGGCAGAUCCUAAUGGAGACUCACCUGCAAAUGUAGAUGCU | 0.6 |
| AUGAUAUGUCCAUAAUGGCCUGGACAGAGGGUGGUGGCUAGUGUCUACGUCAUUUCUUGACCCCAGAUCUGGCGGGAGCUCUUCUCACCUCUGCAUGCACUUAACUUUGGCAUUGGUGGU | 0.254 |
| GUUUAGGCCUUGCCAGUUUUCCGAAGUCUCUGAUUAGUUGACAGUAUUAACACUAAAUUGCAGUUUACAGUAUUUCUACAUUACAGCCAUAUGUAACAUCAAGCCAUCGAUUGUGUACUU | 0.405 |
| ACAGACAGCUCUGAAGAAGCGGCAGCUGCACACAACCUGGGAGGAGGGCCUGGCCCUGCCCCUGGGUGAGGAAGAGCUCCCCACAGCUACCCUGACACUCACCCUGCGCACCUGUGACCG | 0.171 |
| GAGGAUAAUCCAUUUGCAGAGUACAUGUGGAUGGAAAAUGAAGAGGAAUUCAACAGACAAAUAGAAGAGGAGUUGUGGGAAGAAGAAUUUAUUGAACGCUGUUUCCAAGAAAUGCUGGAA | 0.954 |
| GAAGAGAAUAAACUCAUCUACACACCUAUUUUUAAUGAAUACAUUUCUUUGGUAGAAAAAUACAUUGAAGAACAGCUGCUGCAGCGGAUUCCUGAGUUCAACAUGGCAGCCUUCACCACA | 0.519 |
| AAGUCUAAUAAAUGGAAGGAAUGUGGCAAAAUGAUUCAUGAAUCCUCCAAAAGUACACCUUAUCAAACCAACAACAGAGAUGCCUCCAUUGAAUCAUCAAACAGACACAAAACUGAGAAU | 0.142 |

Series 4
Target: ABI1, truncated, D143A, DHFR fusion (Arabidopsis thaliana)
Technique: DHFR PCA, deep sequencing
Matrix: yeast
Notes: methotrexate growth selection, single substitutions
Together with: (+)-ABA 1.4 µM
Baseline: wild-type fitted maximum
Reading: higher = stronger binding
Starting sequence: PYL1, truncated, DHFR fusion (Arabidopsis thaliana); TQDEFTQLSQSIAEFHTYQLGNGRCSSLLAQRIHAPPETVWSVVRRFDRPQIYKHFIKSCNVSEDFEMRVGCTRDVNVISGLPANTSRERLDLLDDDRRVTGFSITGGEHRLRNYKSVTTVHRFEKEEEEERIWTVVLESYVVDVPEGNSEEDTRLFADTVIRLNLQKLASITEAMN; partner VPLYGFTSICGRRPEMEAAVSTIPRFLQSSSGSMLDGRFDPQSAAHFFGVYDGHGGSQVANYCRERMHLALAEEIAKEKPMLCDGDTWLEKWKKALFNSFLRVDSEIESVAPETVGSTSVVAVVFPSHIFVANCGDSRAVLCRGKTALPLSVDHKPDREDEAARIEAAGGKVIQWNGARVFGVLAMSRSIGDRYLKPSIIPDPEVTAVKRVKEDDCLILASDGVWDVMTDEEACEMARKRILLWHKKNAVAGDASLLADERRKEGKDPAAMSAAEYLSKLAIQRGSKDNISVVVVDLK
| Substitution | relative binding score [%] |
| --- | --- |
| I12E | 1.39 |
| T173C | 73.7 |
| V137G | -0.996 |
| E174K | 3.89 |
| V44S | -3.15 |
| S80Y | 33.4 |
| R49D | -3.99 |
| I162C | 17.8 |
| S42K | 56.8 |
| V70P | 66.4 |
| T154A | 8.92 |
| V161W | 59.9 |
| R99V | -11.4 |
| G81Y | -6.67 |
| D65Q | 33.9 |

For quick reference, copied from above (series 1):
| target | lacZ reporter activity |
| --- | --- |
| UBE2Z UBC core domain (UniProt Q9H832) | 0 |
| UBE2O UBC core domain (UniProt Q9C0C9) | 0 |
| UBE2E3 UBC core domain (UniProt Q969T4) | 12700 |
| UBE2D1 UBC core domain (UniProt P51668) | 13500 |
| UBE2L3 UBC core domain (UniProt P68036) | 0 |
| UBE2J1 UBC core domain (UniProt Q9Y385) | 0 |
